Published values gathered from unrelated publications.
Compare with care: the assays were run in different laboratories. Numbers after ± are the reported error.
Lethal factor: Lethal factor (Bacillus anthracis, UniProt P15917)
Spike glycoprotein: Spike glycoprotein (Severe acute respiratory syndrome coronavirus, UniProt P59594)

By UniProt entry, the sequences of proteins in these tests, tags left out. Where a name states a change or a piece, a line headed by the entry shows the natural chain unless it says otherwise.
UniProt Q02294, whole entry, looked up: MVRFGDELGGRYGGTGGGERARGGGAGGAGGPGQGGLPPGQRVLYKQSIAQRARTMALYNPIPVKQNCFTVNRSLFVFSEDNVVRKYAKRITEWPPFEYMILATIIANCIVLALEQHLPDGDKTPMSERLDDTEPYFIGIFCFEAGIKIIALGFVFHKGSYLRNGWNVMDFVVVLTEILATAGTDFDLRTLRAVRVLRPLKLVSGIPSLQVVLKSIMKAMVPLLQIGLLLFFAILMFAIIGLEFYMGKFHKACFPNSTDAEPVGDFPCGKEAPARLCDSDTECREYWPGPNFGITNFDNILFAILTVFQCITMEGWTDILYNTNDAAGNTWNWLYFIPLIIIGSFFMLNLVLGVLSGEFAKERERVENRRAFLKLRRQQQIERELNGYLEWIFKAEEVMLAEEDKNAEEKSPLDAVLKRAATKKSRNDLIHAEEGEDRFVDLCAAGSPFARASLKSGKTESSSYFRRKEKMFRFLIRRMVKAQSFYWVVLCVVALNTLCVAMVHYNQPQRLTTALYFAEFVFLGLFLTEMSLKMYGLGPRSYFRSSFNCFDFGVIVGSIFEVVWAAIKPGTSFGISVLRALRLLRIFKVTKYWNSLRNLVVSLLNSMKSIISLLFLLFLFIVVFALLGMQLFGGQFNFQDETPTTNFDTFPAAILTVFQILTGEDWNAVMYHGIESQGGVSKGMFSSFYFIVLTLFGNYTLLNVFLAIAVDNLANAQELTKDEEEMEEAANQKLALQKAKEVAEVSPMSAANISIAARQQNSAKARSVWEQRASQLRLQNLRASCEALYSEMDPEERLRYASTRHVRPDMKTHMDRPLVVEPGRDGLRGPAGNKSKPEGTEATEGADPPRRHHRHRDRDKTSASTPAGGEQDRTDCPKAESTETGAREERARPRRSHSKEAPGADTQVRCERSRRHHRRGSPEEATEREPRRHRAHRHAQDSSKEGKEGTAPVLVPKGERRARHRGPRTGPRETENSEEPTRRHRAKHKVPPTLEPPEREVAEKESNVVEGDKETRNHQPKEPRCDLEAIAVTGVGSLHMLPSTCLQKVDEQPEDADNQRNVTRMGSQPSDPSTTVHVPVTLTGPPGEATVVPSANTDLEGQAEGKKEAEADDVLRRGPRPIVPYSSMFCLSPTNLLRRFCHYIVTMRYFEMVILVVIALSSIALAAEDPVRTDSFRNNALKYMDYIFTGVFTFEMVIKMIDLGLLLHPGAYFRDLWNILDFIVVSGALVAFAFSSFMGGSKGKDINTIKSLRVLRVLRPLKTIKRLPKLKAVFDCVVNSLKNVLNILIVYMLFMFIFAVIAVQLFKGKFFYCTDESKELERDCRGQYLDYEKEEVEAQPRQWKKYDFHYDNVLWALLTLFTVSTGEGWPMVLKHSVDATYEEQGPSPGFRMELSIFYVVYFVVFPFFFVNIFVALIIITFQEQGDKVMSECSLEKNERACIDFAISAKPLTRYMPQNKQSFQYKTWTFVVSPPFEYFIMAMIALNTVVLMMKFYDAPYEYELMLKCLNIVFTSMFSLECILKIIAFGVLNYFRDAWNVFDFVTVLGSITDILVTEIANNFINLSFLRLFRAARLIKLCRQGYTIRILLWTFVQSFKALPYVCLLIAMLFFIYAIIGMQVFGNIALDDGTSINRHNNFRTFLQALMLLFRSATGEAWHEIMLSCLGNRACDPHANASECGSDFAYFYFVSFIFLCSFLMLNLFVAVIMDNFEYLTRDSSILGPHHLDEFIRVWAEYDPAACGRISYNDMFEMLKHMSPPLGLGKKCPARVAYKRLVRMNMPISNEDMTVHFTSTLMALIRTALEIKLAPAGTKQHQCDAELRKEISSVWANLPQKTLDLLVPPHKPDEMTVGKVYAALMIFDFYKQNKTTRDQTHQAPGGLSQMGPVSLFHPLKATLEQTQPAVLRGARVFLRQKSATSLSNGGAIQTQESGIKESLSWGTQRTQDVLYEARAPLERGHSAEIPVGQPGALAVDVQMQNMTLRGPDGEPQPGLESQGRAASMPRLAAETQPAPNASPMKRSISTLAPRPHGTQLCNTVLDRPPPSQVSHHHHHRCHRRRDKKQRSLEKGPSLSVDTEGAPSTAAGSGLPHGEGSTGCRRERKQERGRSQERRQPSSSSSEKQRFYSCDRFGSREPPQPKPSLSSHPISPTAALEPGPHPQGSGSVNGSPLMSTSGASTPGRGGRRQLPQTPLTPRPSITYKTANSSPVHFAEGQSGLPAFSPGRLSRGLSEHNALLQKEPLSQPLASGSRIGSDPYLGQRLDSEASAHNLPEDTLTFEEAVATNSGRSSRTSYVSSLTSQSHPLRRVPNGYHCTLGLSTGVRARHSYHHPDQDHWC
UniProt P02716, whole entry, looked up: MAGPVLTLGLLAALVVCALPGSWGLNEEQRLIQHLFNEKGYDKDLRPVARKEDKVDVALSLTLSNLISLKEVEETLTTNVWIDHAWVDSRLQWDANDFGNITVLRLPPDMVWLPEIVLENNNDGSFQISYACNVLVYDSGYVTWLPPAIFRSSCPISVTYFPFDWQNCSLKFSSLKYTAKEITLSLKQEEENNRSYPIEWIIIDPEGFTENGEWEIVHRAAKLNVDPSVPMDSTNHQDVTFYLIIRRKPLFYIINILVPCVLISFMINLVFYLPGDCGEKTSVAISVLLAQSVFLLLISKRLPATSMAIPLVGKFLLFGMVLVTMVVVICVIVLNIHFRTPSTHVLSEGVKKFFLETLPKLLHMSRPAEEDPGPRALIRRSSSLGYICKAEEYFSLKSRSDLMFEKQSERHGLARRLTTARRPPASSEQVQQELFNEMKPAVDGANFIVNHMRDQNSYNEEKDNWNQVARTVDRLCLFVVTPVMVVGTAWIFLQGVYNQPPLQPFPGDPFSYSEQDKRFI
UniProt P04756, whole entry, looked up: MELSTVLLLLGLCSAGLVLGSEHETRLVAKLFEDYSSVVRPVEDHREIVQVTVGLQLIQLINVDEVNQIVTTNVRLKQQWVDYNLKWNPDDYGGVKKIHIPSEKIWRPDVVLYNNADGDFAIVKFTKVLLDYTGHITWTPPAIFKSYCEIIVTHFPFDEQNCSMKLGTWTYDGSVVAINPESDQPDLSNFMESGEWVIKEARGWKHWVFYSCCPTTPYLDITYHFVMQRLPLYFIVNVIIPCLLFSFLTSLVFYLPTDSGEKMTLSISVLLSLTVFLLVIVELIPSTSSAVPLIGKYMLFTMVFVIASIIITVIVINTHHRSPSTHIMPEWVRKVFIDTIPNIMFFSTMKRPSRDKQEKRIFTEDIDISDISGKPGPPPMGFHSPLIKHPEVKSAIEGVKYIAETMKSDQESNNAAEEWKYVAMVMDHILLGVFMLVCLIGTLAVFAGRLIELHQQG
UniProt P09690, whole entry, looked up: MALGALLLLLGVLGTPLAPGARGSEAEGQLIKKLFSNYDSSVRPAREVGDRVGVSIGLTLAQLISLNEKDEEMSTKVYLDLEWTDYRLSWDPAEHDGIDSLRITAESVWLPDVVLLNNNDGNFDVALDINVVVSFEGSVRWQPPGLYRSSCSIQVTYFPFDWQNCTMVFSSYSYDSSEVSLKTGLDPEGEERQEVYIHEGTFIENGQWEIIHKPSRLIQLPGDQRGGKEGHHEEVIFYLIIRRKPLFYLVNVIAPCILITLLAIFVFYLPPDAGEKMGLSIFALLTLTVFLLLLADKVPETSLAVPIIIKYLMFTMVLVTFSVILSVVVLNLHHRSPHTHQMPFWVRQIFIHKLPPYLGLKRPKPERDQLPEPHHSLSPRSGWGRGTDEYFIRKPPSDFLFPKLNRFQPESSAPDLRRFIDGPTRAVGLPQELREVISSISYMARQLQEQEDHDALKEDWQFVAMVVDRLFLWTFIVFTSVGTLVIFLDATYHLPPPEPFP
UniProt P20782, whole entry, looked up: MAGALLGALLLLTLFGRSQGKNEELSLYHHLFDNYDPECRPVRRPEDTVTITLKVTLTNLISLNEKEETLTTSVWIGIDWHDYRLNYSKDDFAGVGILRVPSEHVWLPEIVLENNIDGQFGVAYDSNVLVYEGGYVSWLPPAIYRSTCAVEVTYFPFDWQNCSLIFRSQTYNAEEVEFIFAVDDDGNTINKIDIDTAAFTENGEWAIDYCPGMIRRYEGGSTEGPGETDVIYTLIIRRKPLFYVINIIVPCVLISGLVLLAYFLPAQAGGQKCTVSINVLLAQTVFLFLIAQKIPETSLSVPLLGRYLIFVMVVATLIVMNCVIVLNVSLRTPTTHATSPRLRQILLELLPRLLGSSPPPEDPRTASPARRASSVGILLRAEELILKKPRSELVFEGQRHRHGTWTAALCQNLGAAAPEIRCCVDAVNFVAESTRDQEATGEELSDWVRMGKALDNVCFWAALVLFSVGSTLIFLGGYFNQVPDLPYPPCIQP

`CCOc1ccccc1-c1cc2n(n1)C(CS(C)(=O)=O)CNC2=O` (stereo not drawn) has an IC50 of > 200000 nM (Polyprotein P1234, nsP2 protease (Chikungunya virus, UniProt Q5XXP4); FRET).
For `COc1ccc(S(=O)(=O)Nc2cccc(C(=O)NC3CCN(c4ncnc5[nH]cnc45)CC3)c2)cc1`, the EC50 was 1760 nM (SARS-CoV-2; viral replication; Wuhan-Hu-1).
`Cc1cc(S(=O)(=O)NC(C(=O)NO)C2CCOCC2)ccc1F` (racemic) has an IC50 of 800 nM (Lethal factor).
`C[C@@H]1NC(=O)[C@H](CO)NC(=O)CNC(=O)[C@H](CCCCN)NC(=O)[C@H](CCCNC(=N)N)NC(=O)[C@H](CCCCN)NC(=O)[C@@H](N)CSSC[C@@H]2NC(=O)[C@@H]3CSSC[C@@H](C(N)=O)NC(=O)[C@H](CCCCN)NC(=O)CNC(=O)[C@H](CC(N)=O)NC(=O)[C@H](CCCNC(=N)N)NC(=O)[C@H](CSSC[C@H](NC1=O)C(=O)N[C@@H](CCCNC(=N)N)C(=O)N[C@@H](CCCNC(=N)N)C(=O)N[C@@H]([C@@H](C)O)C(=O)N[C@@H](CO)C(=O)N[C@@H](Cc1ccc(O)cc1)C(=O)N[C@@H](CC(=O)O)C(=O)N3)NC(=O)[C@H](CO)NC(=O)CNC(=O)[C@H]([C@@H](C)O)NC2=O` gave an IC50 of 98 nM (Voltage-dependent N-type calcium channel subunit alpha-1B, with α2δ, β3 subunits (Cacna1b, Rattus norvegicus, UniProt Q02294); Ba2+ current, inhibitor, whole-cell patch clamp; HEK293 expressing α2δ and β3; 22 °C, added: Ba2+ 20 mM).
For `Oc1cc(Cl)ccc1Oc1ccccc1`, the IC50 was 500 ± 100 nM (Enoyl-ACP reductase FabI (Bacillus anthracis, UniProt A0A6L8PBX8); inhibitor).
With `CC[C@H](C)[C@H](NC(=O)[C@H](C)NC(=O)[C@H](CCC(=O)O)NC(=O)[C@H](CCC(=O)O)NC(=O)[C@H](CC(C)C)NC(=O)[C@H](CCCCN)NC(=O)[C@H](CCCCN)NC(=O)[C@H](CCSC)NC(=O)[C@H](CCC(=O)O)NC(=O)[C@H](Cc1ccc(O)cc1)NC(=O)[C@H](CCC(=O)O)NC(=O)[C@H](CC(C)C)NC(=O)[C@H](CC(=O)O)NC(=O)[C@H](CC(C)C)NC(=O)[C@H](Cc1ccccc1)NC(=O)[C@@H](NC(=O)[C@@H](NC(=O)[C@H](CC(N)=O)NC(=O)[C@@H](NC(=O)[C@H](CCC(N)=O)NC(=O)[C@H](CC(=O)O)NC(=O)[C@H](CC(C)C)NC(=O)[C@@H](N)CO)[C@@H](C)CC)C(C)C)[C@@H](C)O)C(=O)N[C@@H](CCCCN)C(=O)N[C@@H](CCCCN)C(=O)N[C@@H](CC(C)C)C(=O)N[C@@H](CCC(=O)O)C(=O)N[C@@H](CCC(=O)O)C(=O)N[C@H](C(=O)N[C@@H](Cc1ccc(O)cc1)C(=O)N[C@H](C(=O)N[C@@H](CC(=O)O)C(=O)N[C@@H](CC(C)C)C(=O)N[C@@H](CCCCN)C(=O)N[C@@H](CCC(=O)O)C(=O)N[C@@H](CC(C)C)C(=O)O)[C@@H](C)CC)[C@@H](C)O` the IC50 was 298 nM (Spike glycoprotein; cell-cell fusion, inhibitor, luciferase fusion; 293T donor, Huh-7 target; 16 h, 37 °C).
With `COc1cc(Cn2cnc3cc(C)c(C)cc32)c(Br)cc1Cl` the IC50 was > 100000 nM (Enoyl-[acyl-carrier-protein] reductase [NADH] (Francisella tularensis subsp. tularensis, UniProt Q5NGQ3)).
For `CC[C@H](C)[C@H](NC(=O)[C@H](C)NC(=O)[C@H](CCC(=O)O)NC(=O)[C@H](CCC(=O)O)NC(=O)[C@H](CC(C)C)NC(=O)[C@H](CCCCN)NC(=O)[C@H](CCCCN)NC(=O)[C@H](CCSC)NC(=O)[C@H](CCC(=O)O)NC(=O)[C@H](Cc1ccc(O)cc1)NC(=O)[C@H](CCC(=O)O)NC(=O)[C@H](CC(C)C)NC(=O)[C@H](CC(=O)O)NC(=O)[C@H](CC(C)C)NC(=O)[C@H](Cc1ccccc1)NC(=O)[C@H](Cc1ccc(O)cc1)NC(=O)[C@@H](NC(=O)[C@H](CC(N)=O)NC(=O)[C@@H](NC(=O)[C@H](CCC(N)=O)NC(=O)[C@H](CC(=O)O)NC(=O)[C@H](CC(C)C)NC(=O)[C@@H](N)CO)[C@@H](C)CC)C(C)C)C(=O)N[C@@H](CCCCN)C(=O)N[C@@H](CCCCN)C(=O)N[C@@H](CC(C)C)C(=O)N[C@@H](CCC(=O)O)C(=O)N[C@@H](CCC(=O)O)C(=O)N[C@@H](C)C(=O)N[C@@H](Cc1ccc(O)cc1)C(=O)N[C@H](C(=O)N[C@@H](CC(=O)O)C(=O)N[C@@H](CC(C)C)C(=O)N[C@@H](CCCCN)C(=O)N[C@@H](CCC(=O)O)C(=O)N[C@@H](CC(C)C)C(=O)O)[C@@H](C)CC`, the IC50 was 7.06 nM (Spike glycoprotein; cell-cell fusion, inhibitor, luciferase fusion; 293T donor, Huh-7 target; 16 h, 37 °C, dual mutations).
`CC[C@H](C)[C@@H]1NC(=O)[C@@H]2CSSC[C@H](NC(=O)[C@H](CCCNC(=N)N)NC(=O)[C@@H]3CSSC[C@H](NC1=O)C(=O)N[C@@H]([C@@H](C)O)C(=O)N[C@@H](CCCNC(=N)N)C(=O)NCC(=O)N[C@@H](Cc1ccccc1)C(=O)N3)C(=O)N[C@@H](CC(C)C)C(=O)N[C@H]1CSSC[C@H](NC(=O)[C@H](C(C)C)NC(=O)CNC(=O)[C@H](CCCNC(=N)N)NC(=O)[C@H](CCCNC(=N)N)NC1=O)C(=O)N[C@@H](CCCNC(=N)N)C(=O)N2` has an IC50 of 406 ± 22 nM (Lethal factor; enzyme activity, inhibitor, FRET substrate; pH 7.2).
`Cc1ccc(S(=O)(=O)Nc2cccc(C(=O)NC3CCN(c4ncnc5[nH]cnc45)CC3)c2)cc1Cl` has a relative infection of 14% (SARS-CoV-2; Wuhan-Hu-1; 200 µM; relative to: untreated infected cells).
`CC[C@H](C)[C@@H]1NC(=O)[C@H](CC(=O)O)NC(=O)[C@@H]2CCCN2C(=O)[C@H](CC(N)=O)NC(=O)[C@H](CCC(N)=O)NC(=O)[C@H](CC(C)C)NC(=O)[C@H]([C@@H](C)CC)NC(=O)[C@@H]2CSSC[C@H](NC(=O)[C@@H](N)CC(=O)O)C(=O)N[C@@H](CSSC[C@@H](C(N)=O)NC1=O)C(=O)N[C@@H](CO)C(=O)N[C@@H](C)C(=O)N1CCC[C@H]1C(=O)N1CCC[C@H]1C(=O)N2` has an IC50 of > 10000 nM (Nicotinic acetylcholine receptor alpha1/beta1/epsilon/delta (Mus musculus, UniProt P02716+P04756+P09690+P20782); ACh-evoked current, antagonist, two-electrode voltage clamp; Xenopus oocytes; mouse receptor, added: acetylcholine 10 µM).
For `O=C(NCc1ccccc1)C1C(=O)N(O)C(=O)c2cc([N+](=O)[O-])ccc21` (stereo not drawn), the IC50 was 16800 ± 1000 nM (Nucleoprotein, exonuclease domain (N, Lymphocytic choriomeningitis virus, UniProt P09992); exonuclease activity, inhibitor).

For quick reference, copied from above:
`Cc1cc(S(=O)(=O)NC(C(=O)NO)C2CCOCC2)ccc1F` (racemic) has an IC50 of 800 nM (Lethal factor).
